Assay results collected from several papers.
Numbered parts are unrelated; each lists some results of a single study. Several values in a cell are separate wells, animals, samples, runs or records.
Chain of UniProt Q02763 (whole entry, looked up): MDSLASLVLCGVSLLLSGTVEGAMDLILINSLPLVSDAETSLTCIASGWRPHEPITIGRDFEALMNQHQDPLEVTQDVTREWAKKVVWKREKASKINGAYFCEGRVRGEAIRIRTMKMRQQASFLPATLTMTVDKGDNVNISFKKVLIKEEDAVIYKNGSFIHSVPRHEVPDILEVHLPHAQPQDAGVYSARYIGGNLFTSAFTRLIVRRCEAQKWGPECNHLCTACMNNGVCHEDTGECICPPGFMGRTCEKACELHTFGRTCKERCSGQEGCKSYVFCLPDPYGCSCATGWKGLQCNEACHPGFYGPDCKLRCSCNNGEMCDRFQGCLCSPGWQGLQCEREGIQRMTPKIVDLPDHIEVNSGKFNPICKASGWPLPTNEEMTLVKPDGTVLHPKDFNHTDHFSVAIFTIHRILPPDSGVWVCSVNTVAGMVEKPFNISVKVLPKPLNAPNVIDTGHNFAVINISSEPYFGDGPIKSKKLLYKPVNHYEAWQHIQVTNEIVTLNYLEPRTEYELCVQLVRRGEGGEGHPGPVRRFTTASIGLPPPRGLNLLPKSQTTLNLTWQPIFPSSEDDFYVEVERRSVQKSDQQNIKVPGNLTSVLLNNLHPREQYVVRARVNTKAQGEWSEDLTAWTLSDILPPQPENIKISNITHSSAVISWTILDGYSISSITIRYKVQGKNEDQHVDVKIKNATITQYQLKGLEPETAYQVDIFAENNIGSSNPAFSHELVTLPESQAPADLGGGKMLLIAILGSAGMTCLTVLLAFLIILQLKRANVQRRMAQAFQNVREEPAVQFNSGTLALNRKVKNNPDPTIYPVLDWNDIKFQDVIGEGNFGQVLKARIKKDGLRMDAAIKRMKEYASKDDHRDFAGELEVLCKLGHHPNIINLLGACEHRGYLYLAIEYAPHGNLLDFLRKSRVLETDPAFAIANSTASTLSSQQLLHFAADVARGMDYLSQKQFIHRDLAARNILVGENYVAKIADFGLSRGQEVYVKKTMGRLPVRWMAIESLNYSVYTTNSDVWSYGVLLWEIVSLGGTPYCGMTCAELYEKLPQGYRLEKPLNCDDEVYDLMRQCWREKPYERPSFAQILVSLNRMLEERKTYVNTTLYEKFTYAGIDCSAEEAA
Chain of UniProt P08581 (whole entry, looked up): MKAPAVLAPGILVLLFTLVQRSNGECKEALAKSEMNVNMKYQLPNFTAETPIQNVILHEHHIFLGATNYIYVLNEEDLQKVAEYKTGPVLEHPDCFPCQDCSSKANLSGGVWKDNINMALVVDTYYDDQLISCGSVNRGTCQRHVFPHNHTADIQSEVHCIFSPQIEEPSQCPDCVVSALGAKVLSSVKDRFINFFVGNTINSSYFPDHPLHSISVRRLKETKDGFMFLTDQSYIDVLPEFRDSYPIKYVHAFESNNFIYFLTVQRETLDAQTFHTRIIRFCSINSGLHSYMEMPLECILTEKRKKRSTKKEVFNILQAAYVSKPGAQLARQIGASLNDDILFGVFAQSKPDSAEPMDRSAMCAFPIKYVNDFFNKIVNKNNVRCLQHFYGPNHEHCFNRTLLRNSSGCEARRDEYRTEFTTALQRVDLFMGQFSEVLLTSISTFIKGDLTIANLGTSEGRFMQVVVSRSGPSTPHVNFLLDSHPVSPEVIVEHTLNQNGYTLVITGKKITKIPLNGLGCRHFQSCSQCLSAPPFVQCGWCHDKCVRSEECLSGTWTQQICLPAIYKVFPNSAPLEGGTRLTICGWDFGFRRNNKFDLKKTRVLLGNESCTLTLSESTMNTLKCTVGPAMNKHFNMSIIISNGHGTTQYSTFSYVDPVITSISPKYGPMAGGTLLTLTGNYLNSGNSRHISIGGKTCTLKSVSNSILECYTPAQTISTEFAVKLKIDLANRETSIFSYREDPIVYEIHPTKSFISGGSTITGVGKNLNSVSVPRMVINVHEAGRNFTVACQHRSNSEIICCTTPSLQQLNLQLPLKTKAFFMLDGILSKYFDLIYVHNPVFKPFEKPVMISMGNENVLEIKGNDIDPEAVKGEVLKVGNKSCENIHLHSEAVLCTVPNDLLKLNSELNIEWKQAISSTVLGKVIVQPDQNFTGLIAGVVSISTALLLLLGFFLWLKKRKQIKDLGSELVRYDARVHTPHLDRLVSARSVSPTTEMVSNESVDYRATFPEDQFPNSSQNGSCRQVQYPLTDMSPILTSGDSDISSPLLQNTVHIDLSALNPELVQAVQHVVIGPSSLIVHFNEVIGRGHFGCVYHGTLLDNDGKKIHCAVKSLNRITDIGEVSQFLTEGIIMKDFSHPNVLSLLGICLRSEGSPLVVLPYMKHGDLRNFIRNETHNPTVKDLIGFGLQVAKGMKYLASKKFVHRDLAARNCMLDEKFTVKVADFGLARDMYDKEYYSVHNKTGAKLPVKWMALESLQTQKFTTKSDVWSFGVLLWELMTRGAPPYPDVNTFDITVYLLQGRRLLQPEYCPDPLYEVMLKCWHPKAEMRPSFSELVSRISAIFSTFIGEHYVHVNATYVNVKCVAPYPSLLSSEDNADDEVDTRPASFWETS
Chain of UniProt Q96PY6 (whole entry, looked up): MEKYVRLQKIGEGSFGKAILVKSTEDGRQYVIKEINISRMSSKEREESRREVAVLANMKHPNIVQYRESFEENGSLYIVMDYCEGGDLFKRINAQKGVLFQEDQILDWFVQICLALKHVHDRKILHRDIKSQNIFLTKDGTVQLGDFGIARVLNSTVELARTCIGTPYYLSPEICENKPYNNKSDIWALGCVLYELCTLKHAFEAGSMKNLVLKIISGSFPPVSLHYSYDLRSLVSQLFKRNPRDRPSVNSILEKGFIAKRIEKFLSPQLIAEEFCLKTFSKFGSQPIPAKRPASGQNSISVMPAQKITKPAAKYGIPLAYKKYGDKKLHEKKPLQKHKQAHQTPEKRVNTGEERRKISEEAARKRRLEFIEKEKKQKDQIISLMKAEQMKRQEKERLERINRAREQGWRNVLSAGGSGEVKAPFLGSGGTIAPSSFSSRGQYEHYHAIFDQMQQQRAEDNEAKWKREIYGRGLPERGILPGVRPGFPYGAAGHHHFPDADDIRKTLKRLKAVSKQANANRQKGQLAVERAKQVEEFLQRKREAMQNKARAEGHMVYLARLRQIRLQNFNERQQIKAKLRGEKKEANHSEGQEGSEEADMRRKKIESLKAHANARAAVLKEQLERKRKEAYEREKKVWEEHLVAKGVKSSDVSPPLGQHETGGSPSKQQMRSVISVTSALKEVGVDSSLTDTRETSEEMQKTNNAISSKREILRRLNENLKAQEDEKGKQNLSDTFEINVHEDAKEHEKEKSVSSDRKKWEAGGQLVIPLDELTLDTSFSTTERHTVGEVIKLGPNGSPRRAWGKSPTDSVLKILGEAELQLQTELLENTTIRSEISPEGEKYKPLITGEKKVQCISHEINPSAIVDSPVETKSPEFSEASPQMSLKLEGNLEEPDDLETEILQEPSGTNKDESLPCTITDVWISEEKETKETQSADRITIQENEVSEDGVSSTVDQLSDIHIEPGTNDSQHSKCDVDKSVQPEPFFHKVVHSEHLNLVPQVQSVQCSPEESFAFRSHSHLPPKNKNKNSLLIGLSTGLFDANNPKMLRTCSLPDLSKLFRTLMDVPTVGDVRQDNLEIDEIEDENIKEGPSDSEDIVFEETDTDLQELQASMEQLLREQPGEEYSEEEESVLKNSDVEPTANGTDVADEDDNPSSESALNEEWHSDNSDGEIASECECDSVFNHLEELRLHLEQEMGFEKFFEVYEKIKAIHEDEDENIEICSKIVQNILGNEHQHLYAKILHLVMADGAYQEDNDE
Chain of UniProt Q05655 (whole entry, looked up): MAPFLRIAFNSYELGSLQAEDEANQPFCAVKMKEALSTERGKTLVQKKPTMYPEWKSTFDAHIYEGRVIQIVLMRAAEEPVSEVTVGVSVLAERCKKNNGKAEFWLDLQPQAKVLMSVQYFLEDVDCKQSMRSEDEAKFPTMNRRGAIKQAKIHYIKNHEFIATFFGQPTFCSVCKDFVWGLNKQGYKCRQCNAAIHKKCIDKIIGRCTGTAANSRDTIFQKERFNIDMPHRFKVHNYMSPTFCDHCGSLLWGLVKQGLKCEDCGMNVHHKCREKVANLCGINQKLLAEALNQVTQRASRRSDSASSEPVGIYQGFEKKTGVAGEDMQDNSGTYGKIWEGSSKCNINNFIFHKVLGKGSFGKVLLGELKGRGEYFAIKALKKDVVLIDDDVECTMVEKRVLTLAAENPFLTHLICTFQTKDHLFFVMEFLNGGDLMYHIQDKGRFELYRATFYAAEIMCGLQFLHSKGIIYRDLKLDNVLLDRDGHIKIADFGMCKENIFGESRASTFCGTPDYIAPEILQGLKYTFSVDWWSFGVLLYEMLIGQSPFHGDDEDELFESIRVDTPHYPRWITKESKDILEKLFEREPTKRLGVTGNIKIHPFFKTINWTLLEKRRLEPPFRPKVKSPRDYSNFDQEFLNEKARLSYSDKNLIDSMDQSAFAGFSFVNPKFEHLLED
Chain of UniProt Q8WU08 (whole entry, looked up): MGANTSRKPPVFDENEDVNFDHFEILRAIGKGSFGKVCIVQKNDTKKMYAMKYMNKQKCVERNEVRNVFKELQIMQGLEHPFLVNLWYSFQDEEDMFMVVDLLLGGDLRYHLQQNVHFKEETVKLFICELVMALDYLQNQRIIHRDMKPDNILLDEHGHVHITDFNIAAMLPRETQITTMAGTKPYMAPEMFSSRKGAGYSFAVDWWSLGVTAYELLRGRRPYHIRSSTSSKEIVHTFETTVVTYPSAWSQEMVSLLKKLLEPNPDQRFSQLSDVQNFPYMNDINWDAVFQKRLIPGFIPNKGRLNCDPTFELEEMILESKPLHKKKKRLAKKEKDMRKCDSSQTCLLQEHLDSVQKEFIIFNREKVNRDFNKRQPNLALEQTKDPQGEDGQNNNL

Series 1
Compound: COc1cc(C(=O)N2CCC(N3CCN(C)CC3)CC2)ccc1Nc1ncc2c(n1)N(C)c1ccccc1C(=O)N2C
| target or system | assay | system | conditions | inhibition |
| --- | --- | --- | --- | --- |
| human PBMC | probe labeling, inhibitor, KiNativ profiling | cell lysate | concentration not given, JAK1 domain 2, activation loop site, together with: ATP acyl-phosphate probe | 5.7% and -0.5% |
| MAP2K4 (human) | probe labelling, KiNativ ATP probe | human PBMC lysate | concentration not given, LYS2 labelled site | 9% |
| PIP5K1C mouse | KiNativ profiling | mouse brain lysate | 1 µM, ADP probe, ATP site | -2.5% |
| LYN (human) | probe labelling, KiNativ ADP probe | human PBMC lysate | concentration not given, LYS1 labelled site | 3% |
| human PBMC | probe labeling, inhibitor, KiNativ profiling | cell lysate | concentration not given, ATP site, together with: ADP acyl-phosphate probe 1 µM | 0.1% |
| YSK1 (mouse) | KiNativ ADP probe | mouse brain tissue | 0.1 µM, probe site Lys1 | -21.2% |
| human PBMC | probe labeling, inhibitor, KiNativ profiling, refers to: DIkPDNLLLDSK | cell lysate | 1 µM, LYS2 site, together with: ATP acyl-phosphate probe | 0.3% |
| human PBMC | probe labeling, inhibitor, KiNativ profiling | cell lysate | concentration not given, ATP site, together with: ATP acyl-phosphate probe 1 µM | 22.4% |

Series 2 — read-out: cell-free assay; technique: competition with immobilised ligand; concentration: 1 µM
SMILES: CCC(=O)N[C@@H]1CC[C@H](C(=O)N(C)c2ccc(-c3nc4ccccc4o3)cc2)C1
| target | remaining binding |
| --- | --- |
| Calcium/calmodulin-dependent protein kinase kinase 2 (CAMKK2, Homo sapiens, UniProt Q96RR4) | 100% |
| Serine/threonine-protein kinase Nek1 (NEK1, Homo sapiens, UniProt Q96PY6) | 100% |
| Protein kinase C delta type (PRKCD, Homo sapiens, UniProt Q05655) | 89% |
| Serine/threonine-protein kinase 25 (STK25, Homo sapiens, UniProt O00506) | 100% |
| Angiopoietin-1 receptor (TEK, Homo sapiens, UniProt Q02763) | 82% |
| Serine/threonine-protein kinase MARK1 (MARK1, Homo sapiens, UniProt Q9P0L2) | 86% |
| Serine/threonine-protein kinase 32A (STK32A, Homo sapiens, UniProt Q8WU08) | 100% |
| Mitogen-activated protein kinase kinase kinase 5 (MAP3K5, Homo sapiens, UniProt Q99683) | 100% |
| Tyrosine-protein kinase Yes (YES1, Homo sapiens, UniProt P07947) | 100% |
| Hepatocyte growth factor receptor (MET, Homo sapiens, UniProt P08581) | 100% |

Series 3 — cell line: HaCaT; concentration: 100 µM; time: 36 h
| Compound | viability [%] |
| --- | --- |
| CN(Cc1cnc2nc(N)nc(N)c2n1)c1ccc(C(=O)N[C@@H](CCC(=O)O)C(=O)O)cc1 | 57.2 |
| CN1[C@@H]2CC[C@H]1C[C@@H](OC(=O)c1c[nH]c3ccccc13)C2 | 54.3 |
| Clc1ccc(C(Cn2ccnc2)OCc2csc3c(Cl)cccc23)c(Cl)c1 (stereo not shown) | 6.53 |
| Cc1ccc(/C(=C\CN2CCCC2)c2ccccn2)cc1 | 75.6 |
| CN(C)CC[C@@H](c1ccc(Cl)cc1)c1ccccn1 | 70.3 |
| Nc1cc(-c2ccncc2)c[nH]c1=O | 91 |

Series 4 — cell line: mouse MPNST tumor cells; technique: high-content immunofluorescence imaging; refers to: nuclear SOX9; concentration: 10 µM; time: 12 h; setting: mean of 2 replicates; baseline: DMSO control; direction: higher = more nuclear SOX9
| Structure (SMILES) | nuclear SOX9 intensity |
| --- | --- |
| Cc1cc(C)c(N)c(C#Cc2cccc(F)c2)n1 | 109 % of DMSO |
| Cc1ccccc1C(=O)c1ccc(Nc2ccc(Br)cc2N)cc1Cl | 99.1 % of DMSO |
| CC(C)n1nc(C#Cc2ccccc2)c2c(N)ncnc21 | 126 % of DMSO |
| CNC(=O)COC(=O)NCCC1CCN(c2cccc(C)n2)CC1 | 102 % of DMSO |

Excerpt of the above (series 2):
| target | remaining binding |
| --- | --- |
| Tyrosine-protein kinase Yes (YES1, Homo sapiens, UniProt P07947) | 100% |
| Hepatocyte growth factor receptor (MET, Homo sapiens, UniProt P08581) | 100% |
